# Measured values from different studies.
# Amino acid sequences for entries named in this document (tags omitted). Chains listed by the source or under a name are the forms on record and can include a tag or linker. Residues count along the entry.
# UniProt P41146, whole entry: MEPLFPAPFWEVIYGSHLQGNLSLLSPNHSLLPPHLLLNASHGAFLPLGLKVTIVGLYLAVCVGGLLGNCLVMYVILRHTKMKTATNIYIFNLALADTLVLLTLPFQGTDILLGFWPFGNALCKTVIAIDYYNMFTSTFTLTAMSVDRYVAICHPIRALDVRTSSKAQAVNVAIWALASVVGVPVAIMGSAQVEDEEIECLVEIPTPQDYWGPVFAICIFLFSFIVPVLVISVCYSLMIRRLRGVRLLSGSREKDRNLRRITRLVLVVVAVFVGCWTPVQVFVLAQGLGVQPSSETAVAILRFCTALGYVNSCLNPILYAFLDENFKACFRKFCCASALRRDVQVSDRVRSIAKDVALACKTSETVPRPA
# UniProt P26045, 646-901 limits assumed: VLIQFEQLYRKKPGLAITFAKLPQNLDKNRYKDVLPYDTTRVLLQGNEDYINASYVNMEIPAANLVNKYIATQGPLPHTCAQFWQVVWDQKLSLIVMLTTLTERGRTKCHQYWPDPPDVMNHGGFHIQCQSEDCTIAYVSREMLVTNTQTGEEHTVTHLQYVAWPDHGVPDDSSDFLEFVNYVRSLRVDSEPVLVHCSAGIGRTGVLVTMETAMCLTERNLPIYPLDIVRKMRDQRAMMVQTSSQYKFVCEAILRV
# UniProt P04775, whole entry: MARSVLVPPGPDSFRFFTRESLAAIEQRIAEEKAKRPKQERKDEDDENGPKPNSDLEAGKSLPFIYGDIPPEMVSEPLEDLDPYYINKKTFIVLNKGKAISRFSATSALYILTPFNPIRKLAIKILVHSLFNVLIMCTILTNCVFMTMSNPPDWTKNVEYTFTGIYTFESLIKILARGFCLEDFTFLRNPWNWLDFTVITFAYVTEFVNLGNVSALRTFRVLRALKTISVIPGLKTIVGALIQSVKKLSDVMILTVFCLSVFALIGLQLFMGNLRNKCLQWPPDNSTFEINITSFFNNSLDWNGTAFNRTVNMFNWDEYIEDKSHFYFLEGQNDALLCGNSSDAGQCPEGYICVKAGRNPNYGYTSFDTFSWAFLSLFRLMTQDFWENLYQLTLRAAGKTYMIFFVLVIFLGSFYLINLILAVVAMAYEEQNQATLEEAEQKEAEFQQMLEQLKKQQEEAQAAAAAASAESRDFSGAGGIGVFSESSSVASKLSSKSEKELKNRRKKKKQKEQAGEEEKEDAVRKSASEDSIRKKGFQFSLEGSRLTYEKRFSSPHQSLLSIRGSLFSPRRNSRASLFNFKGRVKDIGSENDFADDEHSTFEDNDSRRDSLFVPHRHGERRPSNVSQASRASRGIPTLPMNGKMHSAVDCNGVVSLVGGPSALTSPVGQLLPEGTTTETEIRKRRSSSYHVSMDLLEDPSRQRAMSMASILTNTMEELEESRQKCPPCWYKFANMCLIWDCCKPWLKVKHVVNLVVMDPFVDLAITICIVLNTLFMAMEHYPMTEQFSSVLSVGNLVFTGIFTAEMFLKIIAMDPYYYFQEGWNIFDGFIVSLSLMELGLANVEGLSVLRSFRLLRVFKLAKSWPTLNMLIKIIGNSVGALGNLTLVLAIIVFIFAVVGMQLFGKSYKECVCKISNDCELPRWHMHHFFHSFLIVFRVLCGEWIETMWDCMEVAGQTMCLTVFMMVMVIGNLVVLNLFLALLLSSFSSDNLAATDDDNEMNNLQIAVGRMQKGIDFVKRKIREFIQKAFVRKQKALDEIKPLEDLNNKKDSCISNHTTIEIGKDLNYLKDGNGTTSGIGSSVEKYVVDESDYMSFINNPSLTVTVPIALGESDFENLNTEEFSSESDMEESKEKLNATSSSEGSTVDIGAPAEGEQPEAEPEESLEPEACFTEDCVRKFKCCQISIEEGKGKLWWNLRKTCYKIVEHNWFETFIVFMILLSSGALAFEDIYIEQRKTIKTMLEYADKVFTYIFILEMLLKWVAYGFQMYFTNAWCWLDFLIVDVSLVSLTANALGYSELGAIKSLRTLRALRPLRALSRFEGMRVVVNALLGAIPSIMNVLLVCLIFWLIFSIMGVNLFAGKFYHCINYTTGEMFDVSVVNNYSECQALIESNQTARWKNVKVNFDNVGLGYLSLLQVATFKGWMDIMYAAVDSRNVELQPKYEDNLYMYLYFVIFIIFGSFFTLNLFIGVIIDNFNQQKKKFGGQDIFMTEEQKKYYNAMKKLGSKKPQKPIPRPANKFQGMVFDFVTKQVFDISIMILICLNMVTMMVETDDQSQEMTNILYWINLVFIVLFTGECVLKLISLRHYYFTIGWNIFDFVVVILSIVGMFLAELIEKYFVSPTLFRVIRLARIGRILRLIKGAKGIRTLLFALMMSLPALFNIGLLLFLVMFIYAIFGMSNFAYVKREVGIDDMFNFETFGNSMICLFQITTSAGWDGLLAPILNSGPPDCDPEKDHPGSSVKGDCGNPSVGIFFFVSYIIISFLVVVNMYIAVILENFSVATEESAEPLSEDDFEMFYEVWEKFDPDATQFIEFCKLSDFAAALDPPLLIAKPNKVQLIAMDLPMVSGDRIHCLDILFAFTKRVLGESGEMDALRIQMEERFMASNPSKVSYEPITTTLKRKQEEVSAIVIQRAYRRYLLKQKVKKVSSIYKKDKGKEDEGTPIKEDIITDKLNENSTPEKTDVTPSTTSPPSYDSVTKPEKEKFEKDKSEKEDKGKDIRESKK
# UniProt P22303, whole entry, looked up: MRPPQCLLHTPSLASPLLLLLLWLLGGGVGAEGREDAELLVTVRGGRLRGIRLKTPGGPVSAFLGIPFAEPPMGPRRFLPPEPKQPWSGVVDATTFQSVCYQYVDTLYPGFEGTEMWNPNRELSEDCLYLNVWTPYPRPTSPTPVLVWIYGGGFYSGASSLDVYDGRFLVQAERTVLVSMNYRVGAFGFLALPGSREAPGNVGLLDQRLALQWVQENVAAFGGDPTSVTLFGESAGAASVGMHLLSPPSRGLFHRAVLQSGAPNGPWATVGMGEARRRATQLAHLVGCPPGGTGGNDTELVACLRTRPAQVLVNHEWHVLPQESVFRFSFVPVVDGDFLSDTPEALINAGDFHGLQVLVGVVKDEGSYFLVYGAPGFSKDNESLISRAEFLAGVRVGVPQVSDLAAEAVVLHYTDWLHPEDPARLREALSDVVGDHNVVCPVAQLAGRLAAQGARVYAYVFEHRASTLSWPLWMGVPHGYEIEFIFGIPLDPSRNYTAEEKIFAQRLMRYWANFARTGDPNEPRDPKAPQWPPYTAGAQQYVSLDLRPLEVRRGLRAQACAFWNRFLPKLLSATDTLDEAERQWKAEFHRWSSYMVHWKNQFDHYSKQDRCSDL
# UniProt Q9Y6W6, 321-464 limits assumed: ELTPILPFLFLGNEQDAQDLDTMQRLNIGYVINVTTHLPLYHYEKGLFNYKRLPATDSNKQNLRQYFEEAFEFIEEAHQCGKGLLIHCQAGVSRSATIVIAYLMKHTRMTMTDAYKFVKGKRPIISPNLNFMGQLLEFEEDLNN
# UniProt P15390, whole entry: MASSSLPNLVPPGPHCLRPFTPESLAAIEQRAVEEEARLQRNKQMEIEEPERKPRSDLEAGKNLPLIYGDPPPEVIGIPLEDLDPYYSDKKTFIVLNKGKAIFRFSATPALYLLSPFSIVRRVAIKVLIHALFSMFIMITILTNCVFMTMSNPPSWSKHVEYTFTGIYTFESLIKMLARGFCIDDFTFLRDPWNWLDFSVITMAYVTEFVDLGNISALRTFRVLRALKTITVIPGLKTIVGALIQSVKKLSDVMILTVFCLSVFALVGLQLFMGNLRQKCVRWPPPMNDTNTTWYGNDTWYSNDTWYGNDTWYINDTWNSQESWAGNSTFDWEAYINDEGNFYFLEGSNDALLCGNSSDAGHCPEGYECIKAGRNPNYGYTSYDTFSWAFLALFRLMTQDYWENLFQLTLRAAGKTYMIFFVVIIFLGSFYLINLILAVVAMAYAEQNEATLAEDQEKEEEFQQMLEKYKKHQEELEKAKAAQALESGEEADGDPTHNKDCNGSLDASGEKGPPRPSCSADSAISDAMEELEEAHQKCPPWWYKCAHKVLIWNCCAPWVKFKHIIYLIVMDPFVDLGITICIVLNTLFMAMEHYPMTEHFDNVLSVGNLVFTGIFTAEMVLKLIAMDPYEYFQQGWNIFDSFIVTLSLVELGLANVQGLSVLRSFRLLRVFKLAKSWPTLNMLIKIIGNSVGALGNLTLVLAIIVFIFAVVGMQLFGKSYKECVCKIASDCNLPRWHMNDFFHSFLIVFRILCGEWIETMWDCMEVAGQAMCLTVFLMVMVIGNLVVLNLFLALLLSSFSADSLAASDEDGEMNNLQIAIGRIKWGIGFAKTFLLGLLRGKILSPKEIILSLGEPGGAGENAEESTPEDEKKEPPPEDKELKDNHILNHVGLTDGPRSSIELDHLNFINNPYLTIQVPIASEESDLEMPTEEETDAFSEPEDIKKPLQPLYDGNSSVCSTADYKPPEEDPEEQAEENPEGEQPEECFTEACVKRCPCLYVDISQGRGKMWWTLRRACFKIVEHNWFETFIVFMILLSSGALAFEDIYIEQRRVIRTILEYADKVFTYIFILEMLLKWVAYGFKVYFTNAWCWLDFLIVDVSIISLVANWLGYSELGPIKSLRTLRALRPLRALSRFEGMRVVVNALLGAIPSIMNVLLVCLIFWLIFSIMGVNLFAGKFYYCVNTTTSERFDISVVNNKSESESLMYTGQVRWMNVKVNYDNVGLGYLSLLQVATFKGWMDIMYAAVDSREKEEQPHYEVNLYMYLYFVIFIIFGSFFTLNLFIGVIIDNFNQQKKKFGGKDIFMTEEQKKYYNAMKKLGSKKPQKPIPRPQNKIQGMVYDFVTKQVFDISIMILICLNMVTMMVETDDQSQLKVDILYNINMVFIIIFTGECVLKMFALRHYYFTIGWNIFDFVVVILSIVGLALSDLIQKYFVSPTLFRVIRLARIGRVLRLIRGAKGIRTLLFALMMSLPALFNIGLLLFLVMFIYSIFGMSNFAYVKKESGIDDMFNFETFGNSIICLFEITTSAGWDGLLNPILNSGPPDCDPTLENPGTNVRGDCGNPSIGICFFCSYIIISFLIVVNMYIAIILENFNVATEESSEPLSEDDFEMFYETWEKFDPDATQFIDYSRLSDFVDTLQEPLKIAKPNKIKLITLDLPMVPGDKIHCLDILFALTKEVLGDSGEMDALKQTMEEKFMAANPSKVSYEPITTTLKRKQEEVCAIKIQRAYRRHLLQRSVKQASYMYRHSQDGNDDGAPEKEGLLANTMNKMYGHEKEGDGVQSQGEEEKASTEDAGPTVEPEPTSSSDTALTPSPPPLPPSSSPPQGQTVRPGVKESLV
# UniProt P37136, 32-574 limits assumed: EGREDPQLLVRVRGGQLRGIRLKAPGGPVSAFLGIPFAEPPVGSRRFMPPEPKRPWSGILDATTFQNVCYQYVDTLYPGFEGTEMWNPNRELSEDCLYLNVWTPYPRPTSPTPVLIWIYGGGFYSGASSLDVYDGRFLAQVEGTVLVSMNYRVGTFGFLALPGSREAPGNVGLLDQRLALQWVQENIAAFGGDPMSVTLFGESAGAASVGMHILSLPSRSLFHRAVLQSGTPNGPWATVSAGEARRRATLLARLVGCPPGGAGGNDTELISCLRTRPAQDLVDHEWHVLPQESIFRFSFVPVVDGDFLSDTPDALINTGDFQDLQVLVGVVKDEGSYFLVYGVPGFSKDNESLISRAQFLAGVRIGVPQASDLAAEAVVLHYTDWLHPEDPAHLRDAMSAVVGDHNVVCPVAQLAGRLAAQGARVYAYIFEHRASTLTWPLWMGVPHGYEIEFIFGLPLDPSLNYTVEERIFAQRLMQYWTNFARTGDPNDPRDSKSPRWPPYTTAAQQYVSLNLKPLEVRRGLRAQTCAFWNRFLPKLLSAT
# UniProt P08510, 1-655 with tags or gaps DEL6-46: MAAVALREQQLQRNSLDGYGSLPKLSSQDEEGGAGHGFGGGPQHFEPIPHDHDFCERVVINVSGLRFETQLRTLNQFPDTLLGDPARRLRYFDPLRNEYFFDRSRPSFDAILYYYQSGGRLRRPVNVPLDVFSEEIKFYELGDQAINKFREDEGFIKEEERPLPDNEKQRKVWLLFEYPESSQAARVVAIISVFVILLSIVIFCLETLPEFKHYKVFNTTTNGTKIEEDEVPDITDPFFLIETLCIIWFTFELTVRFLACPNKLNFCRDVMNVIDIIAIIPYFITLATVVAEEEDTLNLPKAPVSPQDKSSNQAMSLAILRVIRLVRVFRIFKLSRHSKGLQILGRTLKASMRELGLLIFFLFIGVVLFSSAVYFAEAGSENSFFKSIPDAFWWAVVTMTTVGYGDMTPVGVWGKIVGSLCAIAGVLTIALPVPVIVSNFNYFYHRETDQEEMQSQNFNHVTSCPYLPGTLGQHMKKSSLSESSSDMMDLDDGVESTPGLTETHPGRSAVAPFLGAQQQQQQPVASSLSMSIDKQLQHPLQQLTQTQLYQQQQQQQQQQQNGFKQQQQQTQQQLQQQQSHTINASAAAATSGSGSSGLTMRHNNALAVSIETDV
# UniProt P59768, 2-68 partner limits assumed: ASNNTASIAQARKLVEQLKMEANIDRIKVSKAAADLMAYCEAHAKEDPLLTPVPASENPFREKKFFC
# Numbers after ± are the reported error.
# OPRL1: Nociceptin receptor (OPRL1, Homo sapiens, UniProt P41146)
# Secreted effector protein C403A/D356A: Secreted effector protein (Yersinia pestis, UniProt O68720, C403A/D356A)
# N exonuclease domain: Nucleoprotein, exonuclease domain (N, Lymphocytic choriomeningitis virus, UniProt P09992)
# PTPN3: Tyrosine-protein phosphatase non-receptor type 3 (PTPN3, Homo sapiens, UniProt P26045)
# ache: Acetylcholinesterase (ache, Electrophorus electricus, UniProt O42275)
SMILES,target or system,assay,system,conditions,how to read,measurement,result
CCCCN1CC(=O)N[C@@H](Cc2c[nH]c3ccccc23)C(=O)N[C@H]2CSSC[C@H](N)C(=O)N[C@H]3CSSC[C@H](NC(=O)[C@H](CCCNC(=N)N)NC(=O)[C@H](CO)NC(=O)[C@H](Cc4c[nH]cn4)NC(=O)[C@H](CC(=O)O)NC(=O)[C@H](CCCNC(=N)N)NC2=O)C(=O)N[C@H](C(N)=O)CSSC[C@H](NC(=O)[C@H](CC(N)=O)NC3=O)C(=O)N[C@@H](CO)C(=O)N[C@@H](CO)C1=O,"Sodium channel protein type 2 subunit alpha (Scn2a, Rattus norvegicus, UniProt P04775)","sodium current, blocker, two-electrode voltage clamp",Xenopus oocytes,10 µM,,kobs,0.36 ± 0.07 min⁻¹
CC(C)[C@H]1CC[C@@H](N2CCC3(CC2)C(=O)NCN3c2ccccc2)CC1,OPRL1,"G protein activation, GTPγS binding",CHO membranes,"concentration not given, unit not given",baseline: compound over N/OFQ Emax,intrinsic activity,0.88
Cc1ccc(S(=O)(=O)Nc2cccc(C(=O)NC3CCN(c4ncnc5[nH]cnc45)CC3)c2)cc1,"Replicase polyprotein 1ab, nsp14 ExoN with nsp10 (rep, Severe acute respiratory syndrome coronavirus 2, UniProt P0DTD1)",ExoN activity,,0.7812 µM,,inhibition,11.8%
O=P(O)(O)C(F)(F)c1cccc(-c2ccc(CO/N=C/c3ccoc3)cc2)c1,Secreted effector protein C403A/D356A,surface plasmon resonance,,immobilized protein,,ΔG,-5.08 kcal/mol
CCN(CC)Cc1cc(N)ccc1O,"Acetylcholinesterase, VR-inhibited (ACHE, Homo sapiens, UniProt P22303)","enzyme reactivation, reactivator",VR,concentration not given,,reactivation rate kr,4.01 ± 2.37 min⁻¹
O=C1Cc2ccccc2N1C1CCN([C@@H]2CC[C@H]3CCCc4cccc2c43)CC1,OPRL1,"G protein activation, GTPγS binding",CHO membranes,,baseline: compound over N/OFQ EC50,concentration ratio,48
CC[C@H](C)[C@H](NC(=O)[C@H](C)NC(=O)[C@H](CCC(=O)O)NC(=O)[C@H](CCC(=O)O)NC(=O)[C@H](CC(C)C)NC(=O)[C@H](CCCCN)NC(=O)[C@H](CCCCN)NC(=O)[C@H](CCSC)NC(=O)[C@H](CCC(=O)O)NC(=O)[C@H](Cc1ccc(O)cc1)NC(=O)[C@H](CCC(=O)O)NC(=O)[C@H](CC(C)C)NC(=O)[C@H](CC(=O)O)NC(=O)[C@H](CC(C)C)NC(=O)[C@H](Cc1ccccc1)NC(=O)[C@H](Cc1ccccc1)NC(=O)[C@@H](NC(=O)[C@H](CC(N)=O)NC(=O)[C@@H](NC(=O)[C@H](CCC(N)=O)NC(=O)[C@H](CC(=O)O)NC(=O)[C@H](CC(C)C)NC(=O)[C@@H](N)CO)[C@@H](C)CC)C(C)C)C(=O)N[C@@H](CCCCN)C(=O)N[C@@H](CCCCN)C(=O)N[C@@H](CC(C)C)C(=O)N[C@@H](CCC(=O)O)C(=O)N[C@@H](CCC(=O)O)C(=O)N[C@H](C(=O)N[C@@H](Cc1ccc(O)cc1)C(=O)N[C@H](C(=O)N[C@@H](CC(=O)O)C(=O)N[C@@H](CC(C)C)C(=O)N[C@@H](CCCCN)C(=O)N[C@@H](CCC(=O)O)C(=O)N[C@@H](CC(C)C)C(=O)O)[C@@H](C)CC)[C@@H](C)O,SARS-CoV-2 XBB.1.5 pseudovirus,"pseudovirus infection, inhibitor, luciferase",Caco-2,"24 h, dual mutations",,IC50,121 nM
CS(=O)(=O)C=CCNC(=O)c1ccc2[nH]c(=O)n(C3CC3)c2c1,"Polyprotein P1234, nsP2 protease (Chikungunya virus, UniProt Q5XXP4)",time-dependent inhibition,,,,kinact,0.0021 ± 0.0002 s⁻¹
O=P(O)(O)C(F)(F)c1cccc(-c2ccc(CO/N=C/c3ccco3)cc2)c1,Secreted effector protein C403A/D356A,surface plasmon resonance,,immobilized protein,,kon,159 M⁻¹ s⁻¹
O=C(Nc1ccc2c(c1)C(=O)N(O)C(=O)C2C(=O)NCc1ccc(F)cc1)c1ccccc1 (centres unmarked),N exonuclease domain,"exonuclease activity, inhibitor",,"20 µM, 30 min",,inhibition,95%
CC(=O)N[C@@H](Cc1c[nH]cn1)C(=O)N[C@H](C(=O)NCC(=O)N[C@@H](Cc1ccccc1)C(=O)N[C@@H](CC(C)C)C(=O)N[C@H](C(=O)N[C@@H](CCC(=O)O)C(=O)N[C@@H](Cc1cc(=O)oc2cc(OP(=O)(O)O)ccc12)C(=O)N[C@H](C(=O)N[C@@H](C)C(=O)N[C@H](C(=O)N[C@@H](CCCNC(=N)N)C(=O)N[C@@H](Cc1c[nH]c2ccccc12)C(N)=O)[C@@H](C)O)C(C)C)[C@@H](C)O)[C@@H](C)O,"Dual specificity protein phosphatase 10 (Homo sapiens, UniProt Q9Y6W6)",substrate,,"pH 6, ERK1/2 activation-loop peptide",,kcat,0.16 s⁻¹
C[C@@H]1NC(=O)[C@H](CCCNC(=N)N)NC(=O)[C@H](CO)NC(=O)[C@H](Cc2c[nH]cn2)NC(=O)[C@H](CC(=O)O)NC(=O)[C@H](CCCNC(=N)N)NC(=O)[C@@H]2CSSC[C@H](N)C(=O)N[C@@H](C)C(=O)N[C@@H](CC(N)=O)C(=O)N[C@@H](CSSC[C@@H](C(N)=O)NC1=O)C(=O)N[C@@H](CO)C(=O)N[C@@H](CO)C(=O)N[C@@H](CCCCN)C(=O)N[C@@H](Cc1c[nH]c3ccccc13)C(=O)N2,"Sodium channel protein type 4 subunit alpha (Scn4a, Rattus norvegicus, UniProt P15390)","sodium current, blocker, two-electrode voltage clamp",Xenopus oocytes,"1 µM, 20 min, steady state",,block,71 ± 4%
CC(=O)N[C@@H](Cc1c[nH]cn1)C(=O)N[C@@H](CC(=O)O)C(=O)NCC(=O)N[C@@H](CC(C)C)C(=O)N[C@@H](Cc1ccc(OP(=O)(O)O)cc1)C(=O)N[C@@H](CCC(N)=O)C(=O)NCC(=O)N[C@@H](CC(C)C)C(=O)N[C@@H](CO)C(=O)N[C@H](C(=O)N[C@@H](C)C(=O)N[C@H](C(=O)N[C@@H](CCCCN)C(=O)N[C@@H](CC(=O)O)C(=O)N[C@H](C(=O)N[C@@H](Cc1cc(=O)oc2cc(OP(=O)(O)O)ccc12)C(=O)N[C@@H](CC(=O)O)C(=O)N[C@@H](C)C(=O)N[C@@H](CC(C)C)C(=O)N[C@@H](Cc1c[nH]cn1)C(N)=O)[C@@H](C)O)[C@@H](C)O)[C@@H](C)O,PTPN3,substrate,,"pH 6, TCR zeta-chain ITAM peptide",,kcat/Km,36000 M⁻¹ s⁻¹
CCOP(=O)(OCC)ON1C(=O)c2cccc3cccc(c23)C1=O,"Acetylcholinesterase (Ache, Rattus norvegicus, UniProt P37136)","enzyme activity, inhibitor, discontinuous Ellman","rat, postnatal day 70, rat lung homogenate","15 min, 37 °C",,IC50,44 nM
O=C(C1CCNC1)N1CCc2c(F)cc(F)cc21 (centres unmarked),ache,"enzyme activity, inhibitor, Ellman",,"560 µM, with: acetylthiocholine iodide",,Vmax,0.02 absorbance units/min
CNC(=O)CC1C(=O)N(C2CCN([C@H]3CC[C@@H](C(C)C)CC3)CC2)c2ccccc21 (some centres unmarked),OPRL1,"G protein interaction, BRET",HEK293 membranes,,baseline: compound EC50 over N/OFQ EC50,potency ratio,4
CC(=O)N[C@@H](Cc1c[nH]cn1)C(=O)N[C@@H](CC(=O)O)C(=O)NCC(=O)N[C@@H](CC(C)C)C(=O)N[C@@H](Cc1ccc(O)cc1)C(=O)N[C@@H](CCC(N)=O)C(=O)NCC(=O)N[C@@H](CC(C)C)C(=O)N[C@@H](CO)C(=O)N[C@H](C(=O)N[C@@H](C)C(=O)N[C@H](C(=O)N[C@@H](CCCCN)C(=O)N[C@@H](CC(=O)O)C(=O)N[C@H](C(=O)N[C@@H](Cc1cc(=O)oc2cc(OP(=O)(O)O)ccc12)C(=O)N[C@@H](CC(=O)O)C(=O)N[C@@H](C)C(=O)N[C@@H](CC(C)C)C(=O)N[C@@H](Cc1c[nH]cn1)C(N)=O)[C@@H](C)O)[C@@H](C)O)[C@@H](C)O,PTPN3,substrate,,"pH 6, TCR zeta-chain ITAM peptide",,kcat,1.45 s⁻¹
Clc1nc2ccccc2cc1/C=N/c1cc(Br)ccn1,"Replicase polyprotein 1ab, papain-like protease (rep, Severe acute respiratory syndrome coronavirus 2, UniProt P0DTD1)","enzyme activity, inhibitor",,10 µM,,inhibition,1.2%
CC1=C[C@@H](CN2CCN(c3ncccn3)CC2)[C@H](C(C)C)C[C@H]1Cc1nnc(Cc2c[nH]c3ccccc23)o1,"Replicase polyprotein 1ab, nsp4-nsp5-nsp6 precursor (rep, Severe acute respiratory syndrome coronavirus 2, UniProt P0DTD1)","reporter gene, cell-based secondary screen",,,,luciferase signal,14 ± 1.7%
CN(C)Cc1ccc(OC(=O)N(C)C)c(Cl)c1,ache,"enzyme activity, inhibitor, Ellman",,"35.4 µM, with: acetylthiocholine iodide",,Vmax,0.039 absorbance units/min
O=C(NCc1ccc(F)cc1)C1C(=O)N(O)C(=O)c2cc(C(F)(F)F)ccc21 (centres unmarked),N exonuclease domain,"exonuclease activity, inhibitor",,"20 µM, 30 min",,inhibition,73%
CC[C@H](C)[C@@H]1NC(=O)[C@H](CCCNC(=N)N)NC(=O)[C@@H](N)CSSC[C@@H]2NC(=O)[C@@H]3CSSC[C@@H](C(=O)N[C@H](C(=O)O)C(C)C)NC(=O)[C@H](CCCCN)NC(=O)[C@H](CC(N)=O)NC(=O)[C@H](Cc4ccccc4)NC(=O)[C@H](CCCNC(=N)N)NC(=O)[C@H](CC(N)=O)NC(=O)[C@H](CSSC[C@H](NC(=O)[C@H](CCCCN)NC(=O)[C@H](CCC(N)=O)NC(=O)[C@H](CC(N)=O)NC(=O)[C@@H]4C[C@@H](O)CN4C1=O)C(=O)N[C@@H](Cc1ccccc1)C(=O)N[C@@H](CCC(N)=O)C(=O)N[C@@H](Cc1c[nH]cn1)C(=O)N[C@@H](CC(C)C)C(=O)N[C@@H](CC(=O)O)C(=O)N[C@@H](CC(=O)O)C(=O)N3)NC(=O)[C@H](CCCCN)NC(=O)[C@H](CCCNC(=N)N)NC(=O)[C@H](CO)NC2=O,"Sh (Drosophila melanogaster, UniProt P08510, del6-46)","potassium current, outside-out patch clamp",,"500 nM, chronic application, zero voltage, internal K 100, with: 1 mM TEA",,koff,25 ± 3 s⁻¹
CC[C@H](C)[C@H](NC(=O)[C@H](C)NC(=O)[C@H](CCC(=O)O)NC(=O)[C@H](CCC(=O)O)NC(=O)[C@H](CC(C)C)NC(=O)[C@H](CCCCN)NC(=O)[C@H](CCCCN)NC(=O)[C@H](CCSC)NC(=O)[C@H](CCC(=O)O)NC(=O)[C@H](Cc1ccc(O)cc1)NC(=O)[C@H](CCC(=O)O)NC(=O)[C@H](CC(C)C)NC(=O)[C@H](CC(=O)O)NC(=O)[C@H](CC(C)C)NC(=O)[C@H](Cc1ccccc1)NC(=O)[C@H](Cc1ccc(O)cc1)NC(=O)[C@@H](NC(=O)[C@H](CC(N)=O)NC(=O)[C@@H](NC(=O)[C@H](CCC(N)=O)NC(=O)[C@H](CC(=O)O)NC(=O)[C@H](CC(C)C)NC(=O)[C@@H](N)CO)[C@@H](C)CC)C(C)C)C(=O)N[C@@H](CCCCN)C(=O)N[C@@H](CCCCN)C(=O)N[C@@H](CC(C)C)C(=O)N[C@@H](CCC(=O)O)C(=O)N[C@@H](CCC(=O)O)C(=O)N[C@@H](C)C(=O)N[C@@H](Cc1ccc(O)cc1)C(=O)N[C@H](C(=O)N[C@@H](CC(=O)O)C(=O)N[C@@H](CC(C)C)C(=O)N[C@@H](CCCCN)C(=O)N[C@@H](CCC(=O)O)C(=O)N[C@@H](CC(C)C)C(=O)O)[C@@H](C)CC,SARS-CoV-2 EG.5.1 pseudovirus,"pseudovirus infection, inhibitor, luciferase",Caco-2,"24 h, dual mutations",,IC50,159 nM

# A few entries again:
SMILES,target or system,assay,system,conditions,how to read,measurement,result
CC1=C[C@@H](CN2CCN(c3ncccn3)CC2)[C@H](C(C)C)C[C@H]1Cc1nnc(Cc2c[nH]c3ccccc23)o1,"Replicase polyprotein 1ab, nsp4-nsp5-nsp6 precursor (rep, Severe acute respiratory syndrome coronavirus 2, UniProt P0DTD1)","reporter gene, cell-based secondary screen",,,,luciferase signal,14 ± 1.7%
O=C1Cc2ccccc2N1C1CCN([C@@H]2CC[C@H]3CCCc4cccc2c43)CC1,OPRL1,"G protein activation, GTPγS binding",CHO membranes,,baseline: compound over N/OFQ EC50,concentration ratio,48
Cc1ccc(S(=O)(=O)Nc2cccc(C(=O)NC3CCN(c4ncnc5[nH]cnc45)CC3)c2)cc1,"Replicase polyprotein 1ab, nsp14 ExoN with nsp10 (rep, Severe acute respiratory syndrome coronavirus 2, UniProt P0DTD1)",ExoN activity,,0.7812 µM,,inhibition,11.8%
